Published values of several laboratories.
Compare with care: the assays were run in different laboratories. ≈ marks a conversion by molar mass, not a printed value.
Chain of UniProt P36896 (whole entry, looked up): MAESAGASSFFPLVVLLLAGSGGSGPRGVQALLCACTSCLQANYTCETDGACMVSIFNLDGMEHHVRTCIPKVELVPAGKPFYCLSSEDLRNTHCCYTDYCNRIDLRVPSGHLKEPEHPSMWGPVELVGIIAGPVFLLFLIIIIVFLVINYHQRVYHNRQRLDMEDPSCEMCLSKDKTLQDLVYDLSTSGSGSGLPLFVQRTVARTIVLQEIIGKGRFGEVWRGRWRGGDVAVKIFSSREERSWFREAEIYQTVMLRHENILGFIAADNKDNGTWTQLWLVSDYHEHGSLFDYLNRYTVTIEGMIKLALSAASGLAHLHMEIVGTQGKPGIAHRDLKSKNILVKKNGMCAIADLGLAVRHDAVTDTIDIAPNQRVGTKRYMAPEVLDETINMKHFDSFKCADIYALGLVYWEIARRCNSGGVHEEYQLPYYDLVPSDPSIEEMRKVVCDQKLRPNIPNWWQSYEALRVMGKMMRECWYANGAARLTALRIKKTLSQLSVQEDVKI
Chain of UniProt P78527 (whole entry, looked up): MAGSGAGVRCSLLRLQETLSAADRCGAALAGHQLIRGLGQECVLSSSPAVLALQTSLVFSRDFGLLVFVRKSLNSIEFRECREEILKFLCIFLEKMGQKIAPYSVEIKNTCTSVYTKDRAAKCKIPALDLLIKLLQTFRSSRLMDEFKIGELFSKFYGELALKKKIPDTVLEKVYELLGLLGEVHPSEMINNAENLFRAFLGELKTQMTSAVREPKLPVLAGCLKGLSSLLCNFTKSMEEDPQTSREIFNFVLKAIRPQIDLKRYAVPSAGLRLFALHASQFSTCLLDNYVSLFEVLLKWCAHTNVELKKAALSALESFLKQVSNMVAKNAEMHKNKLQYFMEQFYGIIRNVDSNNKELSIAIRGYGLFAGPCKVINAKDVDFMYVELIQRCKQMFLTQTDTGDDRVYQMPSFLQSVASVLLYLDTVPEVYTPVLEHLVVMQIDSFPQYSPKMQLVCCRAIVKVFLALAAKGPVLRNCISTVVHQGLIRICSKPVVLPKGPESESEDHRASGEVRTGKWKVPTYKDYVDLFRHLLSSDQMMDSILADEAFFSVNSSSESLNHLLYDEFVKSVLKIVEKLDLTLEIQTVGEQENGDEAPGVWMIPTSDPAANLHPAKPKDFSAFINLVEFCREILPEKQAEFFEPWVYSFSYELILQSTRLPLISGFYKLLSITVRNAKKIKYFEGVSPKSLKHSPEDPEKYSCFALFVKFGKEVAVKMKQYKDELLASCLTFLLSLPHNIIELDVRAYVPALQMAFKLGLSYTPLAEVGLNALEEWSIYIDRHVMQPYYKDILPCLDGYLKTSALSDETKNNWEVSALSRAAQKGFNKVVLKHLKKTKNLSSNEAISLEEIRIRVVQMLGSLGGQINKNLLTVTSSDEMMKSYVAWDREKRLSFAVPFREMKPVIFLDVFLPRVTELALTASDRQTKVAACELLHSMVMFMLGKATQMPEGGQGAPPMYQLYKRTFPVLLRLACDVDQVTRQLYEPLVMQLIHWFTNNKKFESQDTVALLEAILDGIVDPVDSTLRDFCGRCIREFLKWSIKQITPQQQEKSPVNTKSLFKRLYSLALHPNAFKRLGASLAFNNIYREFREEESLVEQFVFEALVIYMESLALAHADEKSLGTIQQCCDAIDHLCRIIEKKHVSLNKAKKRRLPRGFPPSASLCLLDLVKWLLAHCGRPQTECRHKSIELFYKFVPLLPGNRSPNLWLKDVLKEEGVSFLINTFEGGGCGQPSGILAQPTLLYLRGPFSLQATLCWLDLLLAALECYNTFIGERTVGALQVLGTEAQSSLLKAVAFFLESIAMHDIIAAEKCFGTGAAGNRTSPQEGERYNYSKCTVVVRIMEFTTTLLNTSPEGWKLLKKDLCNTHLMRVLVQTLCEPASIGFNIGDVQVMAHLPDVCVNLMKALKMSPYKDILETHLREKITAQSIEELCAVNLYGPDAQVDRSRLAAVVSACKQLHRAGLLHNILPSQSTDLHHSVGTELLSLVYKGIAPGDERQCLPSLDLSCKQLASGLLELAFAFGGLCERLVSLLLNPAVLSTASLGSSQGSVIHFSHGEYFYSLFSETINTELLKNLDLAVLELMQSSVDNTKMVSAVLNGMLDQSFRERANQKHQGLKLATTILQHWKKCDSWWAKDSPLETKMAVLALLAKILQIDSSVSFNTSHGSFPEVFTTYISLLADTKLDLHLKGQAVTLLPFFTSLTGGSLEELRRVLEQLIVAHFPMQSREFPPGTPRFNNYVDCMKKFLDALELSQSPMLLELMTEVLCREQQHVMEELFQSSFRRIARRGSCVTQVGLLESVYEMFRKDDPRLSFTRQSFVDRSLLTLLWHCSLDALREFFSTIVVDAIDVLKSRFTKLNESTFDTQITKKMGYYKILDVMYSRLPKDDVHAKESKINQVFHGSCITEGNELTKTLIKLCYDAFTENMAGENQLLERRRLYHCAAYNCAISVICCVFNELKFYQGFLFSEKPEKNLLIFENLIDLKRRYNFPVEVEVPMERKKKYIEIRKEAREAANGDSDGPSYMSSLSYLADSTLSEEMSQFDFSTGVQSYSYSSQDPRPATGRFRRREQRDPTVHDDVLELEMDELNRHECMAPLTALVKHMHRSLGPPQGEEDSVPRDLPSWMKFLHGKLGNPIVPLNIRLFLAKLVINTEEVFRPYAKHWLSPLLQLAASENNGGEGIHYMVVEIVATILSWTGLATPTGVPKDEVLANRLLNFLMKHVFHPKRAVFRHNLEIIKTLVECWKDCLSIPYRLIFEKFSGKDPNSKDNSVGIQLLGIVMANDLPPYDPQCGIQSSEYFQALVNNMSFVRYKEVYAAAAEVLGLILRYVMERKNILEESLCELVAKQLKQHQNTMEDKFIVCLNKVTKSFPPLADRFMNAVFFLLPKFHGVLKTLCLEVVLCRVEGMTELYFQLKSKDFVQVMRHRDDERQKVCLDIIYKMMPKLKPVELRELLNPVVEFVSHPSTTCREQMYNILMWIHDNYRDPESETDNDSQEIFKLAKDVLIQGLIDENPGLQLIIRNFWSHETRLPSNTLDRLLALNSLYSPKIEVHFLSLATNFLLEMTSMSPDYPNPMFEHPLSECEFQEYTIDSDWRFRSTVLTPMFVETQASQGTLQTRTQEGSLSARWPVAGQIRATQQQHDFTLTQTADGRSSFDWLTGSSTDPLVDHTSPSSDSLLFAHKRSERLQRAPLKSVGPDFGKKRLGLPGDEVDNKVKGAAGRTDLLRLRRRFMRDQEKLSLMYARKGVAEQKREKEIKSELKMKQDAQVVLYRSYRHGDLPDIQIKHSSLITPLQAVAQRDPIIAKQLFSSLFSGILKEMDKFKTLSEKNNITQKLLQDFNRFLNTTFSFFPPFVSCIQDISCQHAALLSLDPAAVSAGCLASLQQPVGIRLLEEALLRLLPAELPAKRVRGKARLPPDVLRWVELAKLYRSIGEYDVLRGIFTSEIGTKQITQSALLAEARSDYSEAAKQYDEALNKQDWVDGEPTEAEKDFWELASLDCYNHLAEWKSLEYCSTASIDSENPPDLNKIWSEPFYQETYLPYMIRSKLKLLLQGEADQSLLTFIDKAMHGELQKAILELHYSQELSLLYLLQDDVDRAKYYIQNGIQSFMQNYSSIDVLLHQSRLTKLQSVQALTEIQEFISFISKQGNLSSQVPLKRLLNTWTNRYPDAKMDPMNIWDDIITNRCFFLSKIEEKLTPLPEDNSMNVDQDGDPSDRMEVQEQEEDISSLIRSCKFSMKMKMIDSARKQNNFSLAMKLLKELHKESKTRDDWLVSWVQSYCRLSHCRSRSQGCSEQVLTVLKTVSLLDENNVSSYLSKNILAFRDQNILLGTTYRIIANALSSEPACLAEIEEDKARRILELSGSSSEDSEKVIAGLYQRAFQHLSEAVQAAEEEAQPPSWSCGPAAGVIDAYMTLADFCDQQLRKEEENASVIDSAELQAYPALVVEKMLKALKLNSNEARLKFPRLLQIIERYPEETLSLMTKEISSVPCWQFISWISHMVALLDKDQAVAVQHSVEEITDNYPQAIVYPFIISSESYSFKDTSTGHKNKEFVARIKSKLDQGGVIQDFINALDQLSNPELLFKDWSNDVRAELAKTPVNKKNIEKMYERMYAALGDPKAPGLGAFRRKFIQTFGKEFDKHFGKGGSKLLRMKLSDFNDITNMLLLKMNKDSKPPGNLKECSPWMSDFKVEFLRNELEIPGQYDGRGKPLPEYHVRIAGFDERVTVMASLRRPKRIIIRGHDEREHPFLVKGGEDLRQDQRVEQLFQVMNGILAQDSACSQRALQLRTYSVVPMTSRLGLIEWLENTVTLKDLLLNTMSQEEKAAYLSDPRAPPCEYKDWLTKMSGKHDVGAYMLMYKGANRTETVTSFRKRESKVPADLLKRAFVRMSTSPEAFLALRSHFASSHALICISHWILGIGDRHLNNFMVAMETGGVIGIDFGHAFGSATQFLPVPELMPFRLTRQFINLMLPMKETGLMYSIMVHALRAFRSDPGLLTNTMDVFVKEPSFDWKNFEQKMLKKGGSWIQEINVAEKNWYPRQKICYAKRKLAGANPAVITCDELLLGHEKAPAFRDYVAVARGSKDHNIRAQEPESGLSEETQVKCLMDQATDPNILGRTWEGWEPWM

SMILES = COc1ccc2[nH]ccc2c1; tested on = Cryptosporidium parvum; test = parasite growth; system = HCT-8; setting = 24 h, intracellular; endpoint = EC90; value = 1490 µM
SMILES = CCN(O)N=Nc1ccc(S(=O)(=O)Nc2onc(C)c2C)cc1; test = ABTS scavenging; setting = 20 µg/mL; endpoint = inhibition; value = 13.9%
SMILES = OCCn1cc(-c2ccc3c(c2)CC/C3=N\O)c(-c2ccncc2)n1; tested on = Staphylococcus aureus; test = microbial growth; system = NCTC8325; endpoint = MIC; value = > 30 µM
SMILES = NCCCC(=O)O; tested on = Cryptosporidium parvum; test = parasite growth, imaging; system = HCT-8; setting = 1 mM, 24 h, intracellular; endpoint = activity vs control; value = 96.5%
SMILES = O=C(C#Cc1ccc(F)c(F)c1)c1cccc(Cl)c1; tested on = Pseudomonas aeruginosa; test = microbial growth, absorbance; setting = 100 µM, 24 h; endpoint = activity vs control; value = 96%
SMILES = S=C(NCc1ccc2c(c1)OCO2)N1CCN(c2ncnc3c2oc2ccccc23)CC1; tested on = Staphylococcus aureus; test = microbial growth; system = NCTC8325; endpoint = MIC; value = > 30 µM
SMILES = CC[C@@H]1/C=C(\C)C[C@H](C)C[C@H](OC)[C@H]2O[C@@](O)(C(=O)C(=O)N3CCCC[C@H]3C(=O)O[C@H](/C(C)=C/[C@@H]3CC[C@H](Cl)[C@H](OC)C3)[C@H](C)[C@@H](O)CC1=O)[C@H](C)C[C@@H]2OC; tested on = Trypanosoma cruzi; test = parasite growth, absorbance; system = Vero, TULAHUEN; setting = 96 h, intracellular, amastigote; endpoint = IC50; value = 2.16 µM
SMILES = O=C(NC[C@H](O)CO)c1ccncc1Nc1ccc(I)cc1F; tested on = Staphylococcus aureus; test = microbial growth; system = NCTC8325; endpoint = MIC; value = > 30 µM
SMILES = CCC(C)C(=O)C#Cc1ccc(O)c(OC)c1 (stereo not drawn); tested on = Pseudomonas aeruginosa; test = microbial growth, absorbance; setting = 10 µM, 24 h; endpoint = activity vs control; value = 105%
SMILES = CCS(=O)(=O)Oc1ccc(C=NNC(=O)CSc2nc3c(C)cccc3c(=O)n2-c2ccccc2)cc1OC; tested on = Pseudomonas aeruginosa; test = microbial growth, well diffusion; setting = 20 µg/mL; endpoint = inhibition zone; value = 3 mm
SMILES = C=CC(=O)N1CCC(COCC(=O)N2CCN(c3nc(-c4cnc(N)nc4C(F)F)nc(N4CCOC[C@@H]4C)n3)CC2)CC1; tested on = KIT (Homo sapiens, UniProt P10721, D816V); test = binding, competition with immobilised ligand; setting = 1 µM; endpoint = remaining binding; value = 90%
SMILES = CC(=O)N[C@H]1[C@H]([C@H](O)[C@H](O)CO)OC(O)(C(=O)O)C[C@@H]1O (stereo partly drawn); tested on = Cryptosporidium parvum; test = parasite growth, imaging; system = HCT-8; setting = 1 mM, 24 h, intracellular; endpoint = activity vs control; value = 103%
SMILES = O=c1c(O)c(-c2ccc(O)c(O)c2)oc2cc(O)cc(O)c12; tested on = Staphylococcus aureus; test = microbial growth; system = NCTC8325; endpoint = MIC; value = > 30 µM
SMILES = O=C(O)CCc1ccccc1; tested on = Cryptosporidium parvum; test = parasite growth, imaging; system = HCT-8; setting = 1 mM, 24 h, intracellular; endpoint = activity vs control; value = 74.7%
SMILES = COC(=O)Nc1nc2ccc(C(=O)c3ccccc3)cc2[nH]1; tested on = Cryptococcus neoformans; test = microbial growth, broth dilution; setting = 72 h, clinical isolate; endpoint = IC90; value = 1.25 µM
SMILES = CC(C)CN(C[C@@H](O)[C@H](Cc1ccccc1)NC(=O)O[C@H]1CO[C@H]2OCC[C@H]21)S(=O)(=O)c1ccc(N)cc1; tested on = Human immunodeficiency virus 1; test = viral replication; endpoint = IC90; value = 0.0281 µM
SMILES = CCCCC(=O)O; tested on = Cryptosporidium parvum; test = parasite growth, imaging; system = HCT-8; setting = 1 mM, 24 h, intracellular; endpoint = activity vs control; value = 86.3%
SMILES = Cc1ccc(Oc2ccc(NC(=O)CNc3ccccc3N3CCCCS3(=O)=O)cc2)cc1; tested on = Plasmodium falciparum; test = parasite growth; system = 3D7; setting = 72 h, blood stage; endpoint = EC50; value = > 10 µM
SMILES = NCCS(=O)(=O)O; tested on = Cryptosporidium parvum; test = parasite growth, imaging; system = HCT-8; setting = 1 mM, 24 h, intracellular; endpoint = activity vs control; value = 98%
SMILES = Cc1cccc(N(O)N=Nc2ccc(S(=O)(=O)Nc3cc(C)on3)cc2)c1; test = ABTS scavenging; setting = 20 µg/mL; endpoint = inhibition; value = 37.1%
SMILES = CC(=O)N[C@@H](CCC(=O)O)C(=O)O; tested on = Cryptosporidium parvum; test = parasite growth, imaging; system = HCT-8; setting = 1 mM, 24 h, intracellular; endpoint = activity vs control; value = 96.7%
SMILES = COc1cc(C#CC(=O)c2ccccc2Cl)ccc1O; tested on = Pseudomonas aeruginosa; test = microbial growth, absorbance; setting = 100 µM, 24 h; endpoint = activity vs control; value = 96%
SMILES = CCN(CC)CCCC(C)Nc1ccnc2cc(Cl)ccc12 (stereo not drawn); tested on = Plasmodium falciparum; test = parasite growth; system = 3D7; setting = 72 h, blood stage; endpoint = EC50; value = 0.03 µM
SMILES = COc1cc(Nc2ncc3c(n2)-c2ccc(Cl)cc2C(c2c(F)cccc2OC)=NC3)ccc1C(=O)O; tested on = Staphylococcus aureus; test = microbial growth; system = NCTC8325; endpoint = MIC; value = > 30 µM
SMILES = C=CC(=O)ON=C1C=CC(=C(C#N)c2ccccc2)C=C1; tested on = Candida tropicalis; test = microbial killing, broth dilution; system = ATCC13803; setting = 48 h; endpoint = MFC; value = 8 µg/mL (≈ 29 µM)
SMILES = COc1cc(C#C[C@@H](O)CC(C)C)ccc1O; tested on = Pseudomonas aeruginosa; test = microbial growth, absorbance; setting = 100 µM, 24 h; endpoint = activity vs control; value = 96%
SMILES = CC1(C)CNc2cc(NC(=O)c3cccnc3NCc3ccncc3)ccc21; tested on = Staphylococcus aureus; test = microbial growth; system = NCTC8325; endpoint = MIC; value = > 30 µM
SMILES = Cc1ccccc1C(=O)C#Cc1ccc(F)c(F)c1; tested on = Pseudomonas aeruginosa; test = microbial growth, absorbance; setting = 100 µM, 24 h; endpoint = activity vs control; value = 98%
SMILES = CN(CC(=O)Nc1ccc(N(C)c2ccc(Cl)c(Cl)c2)cc1)c1ccccc1N1CCCC1=O; tested on = Plasmodium falciparum; test = parasite growth; system = 3D7; setting = 72 h, blood stage; endpoint = EC50; value = 0.061 µM
SMILES = CN(Cc1ccc(C(C)(C)C)cc1)Cc1cccc2ccccc12; tested on = Trichophyton rubrum; test = microbial growth, disc diffusion; system = ATCC28188; setting = 0.002 µg/mL, 6 days; endpoint = inhibition zone; value = 36 mm
SMILES = CCCCN(c1ccc(C)cc1)c1ccc(NC(=O)CN(C)c2ccccc2N2CCCC2=O)cc1; tested on = Plasmodium falciparum; test = parasite growth; system = 3D7; setting = 72 h, blood stage; endpoint = EC50; value = 0.035 µM
SMILES = O=C(Nc1ccccc1)Nc1ccc(Oc2nnc(-c3ccc(Cl)cc3)c3ccccc23)cc1; tested on = MCF7; test = cell growth or viability, MTT; setting = 5 µM; endpoint = cell death; value = 96.8%
SMILES = CN1CCN(c2nc(C3=C(c4c[nH]c5ccccc45)C(=O)NC3=O)c3ccccc3n2)CC1; tested on = Staphylococcus aureus; test = microbial growth; system = NCTC8325; endpoint = MIC; value = > 30 µM
SMILES = CCCS(=O)(=O)Oc1cc(C=NNC(=O)CSc2nc3ccc(Cl)cc3c(=O)n2-c2ccccc2)ccc1OC; tested on = Klebsiella pneumoniae; test = microbial growth, well diffusion; setting = 20 µg/mL; endpoint = inhibition zone; value = 2 mm
SMILES = CN(Cc1ccc(C2(C(F)(F)F)CC2)cc1)Cc1cccc2ccccc12; tested on = Trichophyton rubrum; test = microbial growth, disc diffusion; system = ATCC28188; setting = 0.002 µg/mL, 6 days; endpoint = inhibition zone; value = 21.8 mm
SMILES = O=c1cc(N2CCOCC2)oc2c(-c3ccccc3)cccc12; tested on = Staphylococcus aureus; test = microbial growth; system = NCTC8325; endpoint = MIC; value = > 30 µM
SMILES = CN(CC(=O)Nc1ccc(N(C)c2ccc(Cl)cc2)c(Cl)c1)c1ccccc1N1CCCC1=O; tested on = Plasmodium falciparum; test = parasite growth; system = 3D7; setting = 72 h, blood stage; endpoint = EC50; value = 0.418 µM
SMILES = COc1cc(-c2cncc3c2CN(C)Cc2cc(N4CCNCC4)ccc2-3)cc(OC)c1OC; tested on = ACVR1B (Homo sapiens, UniProt P36896); test = enzyme activity, inhibitor; setting = 1 µM; endpoint = remaining activity; value = 32%
SMILES = C=C[C@]1(C)C[C@@H](OC(=O)CS[C@@H]2C[C@H]3CC[C@@H](C2)N3C)[C@]2(C)[C@H](C)CC[C@]3(CCC(=O)[C@H]32)[C@@H](C)[C@@H]1O; tested on = Streptococcus pneumoniae; test = microbial growth; setting = clinical isolate; endpoint = MIC90; value = 0.0312 µg/mL (≈ 0.0604 µM)
SMILES = COc1cc(-c2[nH]nnc2C(=O)c2ccccc2)ccc1O; tested on = Pseudomonas aeruginosa; test = microbial growth, absorbance; setting = 100 µM, 24 h; endpoint = activity vs control; value = 92%
SMILES = CNc1ncc2c(/C=C/C(=O)N3CCC(OC)CC3)nn(Cc3cccc(C(F)(F)F)c3)c2n1; tested on = PRKDC (Homo sapiens, UniProt P78527); test = enzyme activity, inhibitor, radiometric; setting = 1 µM; endpoint = remaining activity; value = 98%
SMILES = C[C@H](CCC(=O)O)[C@H]1CC[C@H]2[C@@H]3CC[C@@H]4C[C@H](O)CC[C@]4(C)[C@H]3C[C@H](O)[C@]12C; tested on = Cryptosporidium parvum; test = parasite growth, imaging; system = HCT-8; setting = 100 µM, 24 h, intracellular; endpoint = activity vs control; value = 47.3%
SMILES = CO[C@H]1/C=C/O[C@@]2(C)Oc3c(C)c(O)c4c(c3C2=O)C2=NC3(CCN(CC(C)C)CC3)NC2=C(NC(=O)/C(C)=C\C=C\[C@H](C)[C@H](O)[C@@H](C)[C@@H](O)[C@@H](C)[C@H](OC(C)=O)[C@@H]1C)C4=O; tested on = Trypanosoma cruzi; test = parasite growth, absorbance; system = Vero, TULAHUEN; setting = 96 h, intracellular, amastigote; endpoint = IC50; value = 7.32 µM
SMILES = CC(=O)Nc1ccc(Oc2nnc(-c3ccc(Cl)cc3)c3ccccc23)cc1; tested on = MCF7; test = cell growth or viability, MTT; setting = 0.625 µM; endpoint = cell death; value = 95.1%
SMILES = O=C(C#Cc1ccc(F)c(F)c1)c1ccccc1Cl; tested on = Pseudomonas aeruginosa; test = microbial growth, absorbance; setting = 100 µM, 24 h; endpoint = activity vs control; value = 97%
SMILES = Cc1ccc(Oc2ccc(NC(=O)CNc3ccccc3N3CCCS3(=O)=O)cc2)cc1; tested on = Plasmodium falciparum; test = parasite growth; system = 3D7; setting = 72 h, blood stage; endpoint = EC50; value = > 10 µM
SMILES = COc1cc(C#CC(O)c2ccccc2)ccc1O (stereo not drawn); tested on = Pseudomonas aeruginosa; test = microbial growth, absorbance; setting = 10 µM, 24 h; endpoint = activity vs control; value = 93%
SMILES = Cc1ccc(N(C)c2ccc(NC(=O)CN(C)c3ccccc3N3CCCC3=O)cc2)c(F)c1; tested on = Plasmodium falciparum; test = parasite growth; system = 3D7; setting = 72 h, blood stage; endpoint = EC50; value = 0.02 µM
SMILES = CC1(C)OC[C@@]2(C)[C@H]3CC[C@@H]4CN(Cc5ccccc5)[C@@H](C5=CCOC5=O)C[C@H]4[C@]3(C)CC[C@H]2O1; tested on = unidentified human coronavirus; test = cytopathic effect; system = MRC5; setting = 25 µM, 72 h; endpoint = inhibition; value = 13.4%
SMILES = O=C(CNc1ccccc1N1CCCC1=O)Nc1ccc(Oc2ccc(Cl)cc2)cc1; tested on = Plasmodium falciparum; test = parasite growth; system = 3D7; setting = 72 h, blood stage; endpoint = EC50; value = 1.67 µM
SMILES = CC(=O)NC[C@H]1CN(c2ccc(N3CCOCC3)c(F)c2)C(=O)O1; tested on = Streptococcus pneumoniae; test = microbial growth; setting = clinical isolate; endpoint = MIC90; value = 2 µg/mL (≈ 5.93 µM)
